Assay results collected from several papers.
A part holds a random share of what one study measured. Several values in a cell are separate wells, animals, samples, runs or records.
Chain of UniProt P05771 (whole entry, looked up): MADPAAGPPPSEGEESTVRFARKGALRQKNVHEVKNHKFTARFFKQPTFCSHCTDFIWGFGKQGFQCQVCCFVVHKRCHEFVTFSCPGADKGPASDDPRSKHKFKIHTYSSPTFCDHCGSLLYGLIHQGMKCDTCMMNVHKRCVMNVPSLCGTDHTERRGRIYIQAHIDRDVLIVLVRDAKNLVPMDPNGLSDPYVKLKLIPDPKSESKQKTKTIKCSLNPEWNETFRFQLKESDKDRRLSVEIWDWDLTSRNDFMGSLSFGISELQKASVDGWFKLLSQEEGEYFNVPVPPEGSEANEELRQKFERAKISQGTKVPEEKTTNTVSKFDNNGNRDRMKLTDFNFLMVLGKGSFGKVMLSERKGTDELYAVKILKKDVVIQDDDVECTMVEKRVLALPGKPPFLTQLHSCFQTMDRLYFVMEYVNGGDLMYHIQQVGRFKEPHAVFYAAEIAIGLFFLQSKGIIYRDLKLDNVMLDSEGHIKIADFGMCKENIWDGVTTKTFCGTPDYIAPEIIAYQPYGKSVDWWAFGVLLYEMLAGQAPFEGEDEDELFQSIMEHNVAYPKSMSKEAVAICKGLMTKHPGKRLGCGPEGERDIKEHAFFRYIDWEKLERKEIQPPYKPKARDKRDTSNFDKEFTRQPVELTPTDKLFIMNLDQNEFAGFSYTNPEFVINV
Chain of UniProt P36896 (whole entry, looked up): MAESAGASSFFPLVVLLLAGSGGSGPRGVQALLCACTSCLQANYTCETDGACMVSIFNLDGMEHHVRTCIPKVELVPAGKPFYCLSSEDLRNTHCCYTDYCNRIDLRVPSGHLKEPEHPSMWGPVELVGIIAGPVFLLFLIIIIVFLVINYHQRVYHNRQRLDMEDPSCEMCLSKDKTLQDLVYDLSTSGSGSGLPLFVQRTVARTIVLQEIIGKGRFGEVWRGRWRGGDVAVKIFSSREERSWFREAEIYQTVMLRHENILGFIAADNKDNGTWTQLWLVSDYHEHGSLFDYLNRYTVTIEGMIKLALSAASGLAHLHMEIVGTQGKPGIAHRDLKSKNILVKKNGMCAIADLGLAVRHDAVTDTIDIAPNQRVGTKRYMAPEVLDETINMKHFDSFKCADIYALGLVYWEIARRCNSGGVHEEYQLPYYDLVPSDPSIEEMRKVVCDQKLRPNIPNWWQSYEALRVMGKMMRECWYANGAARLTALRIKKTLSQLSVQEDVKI
Chain of UniProt O43318 (whole entry, looked up): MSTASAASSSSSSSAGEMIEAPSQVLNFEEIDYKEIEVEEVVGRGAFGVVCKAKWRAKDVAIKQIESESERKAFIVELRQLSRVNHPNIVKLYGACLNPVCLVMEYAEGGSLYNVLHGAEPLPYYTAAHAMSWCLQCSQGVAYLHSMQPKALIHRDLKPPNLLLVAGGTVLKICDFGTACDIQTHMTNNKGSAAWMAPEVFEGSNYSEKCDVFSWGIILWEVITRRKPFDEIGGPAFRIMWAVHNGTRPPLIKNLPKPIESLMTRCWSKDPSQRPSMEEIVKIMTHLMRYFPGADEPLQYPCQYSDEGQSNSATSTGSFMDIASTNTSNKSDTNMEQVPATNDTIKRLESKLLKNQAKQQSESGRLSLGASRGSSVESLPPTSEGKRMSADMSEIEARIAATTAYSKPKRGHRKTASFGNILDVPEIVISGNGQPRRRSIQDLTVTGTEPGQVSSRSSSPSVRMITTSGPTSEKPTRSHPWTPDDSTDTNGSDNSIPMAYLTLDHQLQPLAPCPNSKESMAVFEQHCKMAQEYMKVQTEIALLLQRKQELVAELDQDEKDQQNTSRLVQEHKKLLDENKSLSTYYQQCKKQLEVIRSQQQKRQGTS
Chain of UniProt P37023 (whole entry, looked up): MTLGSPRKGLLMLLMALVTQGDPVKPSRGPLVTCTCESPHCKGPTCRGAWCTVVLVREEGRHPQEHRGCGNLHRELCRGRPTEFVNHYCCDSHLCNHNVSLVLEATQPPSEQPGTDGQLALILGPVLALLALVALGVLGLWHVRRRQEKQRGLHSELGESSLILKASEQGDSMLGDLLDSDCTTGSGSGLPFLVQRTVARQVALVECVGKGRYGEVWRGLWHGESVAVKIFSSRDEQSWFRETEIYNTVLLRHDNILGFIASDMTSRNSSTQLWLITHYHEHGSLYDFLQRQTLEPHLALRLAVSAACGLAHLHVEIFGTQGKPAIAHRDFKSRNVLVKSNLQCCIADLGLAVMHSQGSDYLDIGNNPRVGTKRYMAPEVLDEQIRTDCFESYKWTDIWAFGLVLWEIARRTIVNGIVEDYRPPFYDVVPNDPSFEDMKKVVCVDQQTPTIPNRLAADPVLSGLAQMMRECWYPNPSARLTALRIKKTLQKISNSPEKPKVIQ
Chain of UniProt Q13976 (whole entry, looked up): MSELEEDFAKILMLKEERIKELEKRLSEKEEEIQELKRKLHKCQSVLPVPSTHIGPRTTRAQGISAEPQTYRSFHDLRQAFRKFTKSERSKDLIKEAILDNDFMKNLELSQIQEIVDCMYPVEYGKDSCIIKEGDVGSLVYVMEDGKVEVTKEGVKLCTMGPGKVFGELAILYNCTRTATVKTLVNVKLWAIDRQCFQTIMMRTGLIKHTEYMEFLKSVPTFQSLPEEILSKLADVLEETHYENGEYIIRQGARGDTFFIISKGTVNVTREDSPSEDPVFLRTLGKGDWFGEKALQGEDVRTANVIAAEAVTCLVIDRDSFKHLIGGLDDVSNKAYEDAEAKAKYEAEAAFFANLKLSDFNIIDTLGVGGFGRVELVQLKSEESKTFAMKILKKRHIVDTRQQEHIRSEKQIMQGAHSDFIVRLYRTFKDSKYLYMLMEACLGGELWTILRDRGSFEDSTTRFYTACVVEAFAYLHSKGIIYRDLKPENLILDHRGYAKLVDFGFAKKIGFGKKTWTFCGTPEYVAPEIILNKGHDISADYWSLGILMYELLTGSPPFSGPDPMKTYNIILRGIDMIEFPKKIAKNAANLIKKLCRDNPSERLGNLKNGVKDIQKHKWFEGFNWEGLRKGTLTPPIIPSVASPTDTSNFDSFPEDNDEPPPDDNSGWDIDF
Chain of UniProt P49841 (whole entry, looked up): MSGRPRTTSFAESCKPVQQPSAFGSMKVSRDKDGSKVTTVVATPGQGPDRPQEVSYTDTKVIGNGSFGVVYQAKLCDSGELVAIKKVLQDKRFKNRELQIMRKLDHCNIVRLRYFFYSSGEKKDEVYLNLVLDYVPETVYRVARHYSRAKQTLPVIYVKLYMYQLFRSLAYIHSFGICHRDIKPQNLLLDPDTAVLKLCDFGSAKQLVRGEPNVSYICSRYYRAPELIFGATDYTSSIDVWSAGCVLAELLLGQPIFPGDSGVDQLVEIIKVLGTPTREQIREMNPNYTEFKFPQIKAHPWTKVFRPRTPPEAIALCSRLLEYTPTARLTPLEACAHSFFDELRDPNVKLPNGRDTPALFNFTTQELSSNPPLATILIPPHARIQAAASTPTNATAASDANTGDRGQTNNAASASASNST
Chain of UniProt Q15831 (whole entry, looked up): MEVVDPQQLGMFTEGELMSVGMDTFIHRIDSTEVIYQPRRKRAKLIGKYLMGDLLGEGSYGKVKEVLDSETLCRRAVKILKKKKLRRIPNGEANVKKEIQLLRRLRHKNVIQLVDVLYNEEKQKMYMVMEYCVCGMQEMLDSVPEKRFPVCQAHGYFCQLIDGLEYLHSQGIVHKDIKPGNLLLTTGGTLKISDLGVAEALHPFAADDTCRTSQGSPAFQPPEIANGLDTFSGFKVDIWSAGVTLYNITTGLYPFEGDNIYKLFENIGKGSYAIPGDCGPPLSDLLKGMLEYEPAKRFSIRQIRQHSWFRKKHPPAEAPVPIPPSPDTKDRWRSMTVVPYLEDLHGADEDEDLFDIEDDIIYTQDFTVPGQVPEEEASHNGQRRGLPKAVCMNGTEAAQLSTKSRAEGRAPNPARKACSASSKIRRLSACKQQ
Chain of UniProt O96017 (whole entry, looked up): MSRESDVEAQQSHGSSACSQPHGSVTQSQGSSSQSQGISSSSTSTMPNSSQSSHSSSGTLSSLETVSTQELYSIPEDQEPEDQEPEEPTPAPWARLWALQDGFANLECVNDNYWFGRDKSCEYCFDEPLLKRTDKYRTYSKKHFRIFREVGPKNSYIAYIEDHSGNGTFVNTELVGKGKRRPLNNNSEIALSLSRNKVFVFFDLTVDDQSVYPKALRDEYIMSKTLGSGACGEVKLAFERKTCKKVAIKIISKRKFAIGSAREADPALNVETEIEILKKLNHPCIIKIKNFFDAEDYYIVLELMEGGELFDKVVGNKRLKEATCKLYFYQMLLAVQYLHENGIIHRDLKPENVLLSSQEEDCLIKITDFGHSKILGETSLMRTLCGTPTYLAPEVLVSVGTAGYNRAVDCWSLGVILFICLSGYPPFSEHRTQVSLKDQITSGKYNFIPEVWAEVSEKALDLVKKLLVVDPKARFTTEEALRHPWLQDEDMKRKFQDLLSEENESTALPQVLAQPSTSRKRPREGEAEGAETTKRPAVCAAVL

Study 1
Cell line: mouse MPNST tumor cells
Technique: high-content immunofluorescence imaging
Item: nuclear SOX9
Tested at: 10 µM
Time: 12 h
Notes: mean of 2 replicates
Reference: DMSO control
Direction: higher = more nuclear SOX9
Measurement: nuclear SOX9 intensity
Cc1cccc(C)c1NC(=O)C1CCCCN1C (centres unmarked): 92.6 % of DMSO
CN(C)CCC(c1ccc(Br)cc1)c1ccccn1 (centres unmarked): 111 % of DMSO
CCCCC1C(=O)N(c2ccccc2)N(c2ccccc2)C1=O: 101 % of DMSO and 92.6 % of DMSO
C[C@@H]1C[C@H]2[C@@H]3C[C@H](F)C4=CC(=O)C=C[C@]4(C)[C@@]3(F)[C@@H](O)C[C@]2(C)[C@@]1(O)C(=O)CO: 75.9 % of DMSO
CN1C(=O)CC(c2ccccc2)C1=O (centres unmarked): 76 % of DMSO and 104 % of DMSO
c1ccc(C(O[C@@H]2CCCN(CCc3ccc4c(c3)OCO4)C2)c2ccccc2)cc1: 110 % of DMSO
CCOc1nc2c(N)ncnc2n1CC: 103 % of DMSO
Cc1noc(C)c1-c1cc(O)cc(C(O)c2ccccc2)c1 (centres unmarked): 95.3 % of DMSO

Study 2
Species: human
Sample: microsomes or S9
Tested at: 2 µM
Time: 0.5 h
Measurement: remaining compound
CC1CCCC(C)N1C(=O)c1cc(-c2ccccc2)nn1-c1ncccc1-c1ccccc1 (centres unmarked): < 1%
C1=Cn2nc(/C=C/c3c[nH]c4ccccc34)nc2-c2ccccc2O1: 46.5%
O=C(NC1CCc2ccccc21)c1nnn(-c2ccccc2Cl)c1-c1ccncc1 (centres unmarked): 3.4%
COC(=O)c1nc(N2CCN(C(=O)c3ccco3)CC2)c2scc(-c3ccc(C(=O)O)cc3)c2n1: > 100%
O=c1[nH]c2ccccc2c(O)c1-c1ccc(F)cc1: > 100%
NC(=O)C1CCC(CNCc2cc3ccccc3s2)CC1 (centres unmarked): 85.1%
CCOc1ccc(CCNCc2c(C(=O)O)c(C)n(-c3ccccc3)c2C)cc1OCC: 76.3%
Cc1cc(O)c(C(=O)O)cc1S(=O)(=O)Nc1ccc(NC(=O)NCC2CCCO2)cc1 (centres unmarked): 78.9%
Nc1cccc(Nc2nc(-c3ccc(Cl)cc3)cs2)c1: 17.4%
COc1ccccc1NC(=O)c1cc2c(OC)cccc2[nH]1: 6.8%

Study 3
SMILES: Nc1[nH]nc2nc3ccccc3nc12
Observed: enzyme activity
Mode: inhibitor
Tested at: 0.5 µM
Reference: control
Measurement: remaining activity
TGFBR1 (Homo sapiens, UniProt P36897): 98.1%
Cyclin-dependent kinase 5, with p25 (CDK5, Homo sapiens, UniProt Q00535): 85.4%
STK10 (Homo sapiens, UniProt O94804): 94.6%
PRKCA (Homo sapiens, UniProt P17252): 71%
PRKACA (Homo sapiens, UniProt P17612): 102%
DAPK2 (Homo sapiens, UniProt Q9UIK4): 91%
MAPK9 (Homo sapiens, UniProt P45984): 103%
MAP3K3 (Homo sapiens, UniProt Q99759): 103%
CHEK2 (Homo sapiens, UniProt O96017): 94.5%
STK11 (Homo sapiens, UniProt Q15831): 85.7%
Protein kinase C beta type, isoform beta-I (PRKCB, Homo sapiens, UniProt P05771): 103%
cGMP-dependent protein kinase 1, isoform beta (PRKG1, Homo sapiens, UniProt Q13976): 93%

Study 4
Compound: COCCOc1nc(-c2ccc(Cl)nc2)nc2c1CN(C(=O)c1ncn3ccccc13)CC2
Observed: cell-free assay
Technique: competition with immobilised ligand
Tested at: 0.1 µM
Measurement: remaining binding
Insulin receptor (INSR, Homo sapiens, UniProt P06213): 76%
EPHA6 (Homo sapiens, UniProt Q9UF33): 100%
NEK1 (Homo sapiens, UniProt Q96PY6): 100%
MAP3K7 (Homo sapiens, UniProt O43318): 93%
ACVR1B (Homo sapiens, UniProt P36896): 86%
ACVRL1 (Homo sapiens, UniProt P37023): 100%
TNK2 (Homo sapiens, UniProt Q07912): 100%
GSK3B (Homo sapiens, UniProt P49841): 100%

Some of these lines once more (study 1):
CCCCC1C(=O)N(c2ccccc2)N(c2ccccc2)C1=O: 101 % of DMSO and 92.6 % of DMSO
c1ccc(C(O[C@@H]2CCCN(CCc3ccc4c(c3)OCO4)C2)c2ccccc2)cc1: 110 % of DMSO
CCOc1nc2c(N)ncnc2n1CC: 103 % of DMSO
Cc1cccc(C)c1NC(=O)C1CCCCN1C (centres unmarked): 92.6 % of DMSO
